# Assay results gathered from unrelated publications.
# Lines come from different studies, so protocols differ.
# BRD4: Bromodomain-containing protein 4 (BRD4, Homo sapiens, UniProt O60885)
# BRD4 BD1: Bromodomain-containing protein 4, BD1 (BRD4, Homo sapiens, UniProt O60885)
# BRD4 BD2: Bromodomain-containing protein 4, BD2 (BRD4, Homo sapiens, UniProt O60885)
Compound,target,assay,test system,endpoint,result
COc1cc(N2CCN(C)CC2)ccc1Nc1ncc2c(n1)N(C)c1ccc(C)cc1C(=O)N2CC(F)(F)F,BRD4,"binding, AlphaScreen",,IC50,> 10000 nM
CN1CCN(CCN2CCCN(c3ccc(Oc4ccc(F)cc4F)c(-c4cn(C)c(=O)c5[nH]ccc45)c3)S2(=O)=O)CC1,BRD4 BD1,"cell-free assay, TR-FRET",,IC50,0.99 nM
Cc1ncsc1-c1ccc(CNC(=O)[C@@H]2C[C@@H](O)CN2C(=O)[C@@H](NC(=O)COCC(C)(COCCOCCOCCNC(=O)C[C@@H]2N=C(c3ccc(Cl)cc3)c3c(sc(C)c3C)-n3c(C)nnc32)COCCOCCOCCNC(=O)C[C@@H]2N=C(c3ccc(Cl)cc3)c3c(sc(C)c3C)-n3c(C)nnc32)C(C)(C)C)cc1,BRD4 BD2,"ligand displacement, AlphaScreen",,IC50,205 nM
COC(=O)CCNc1nc(-c2ccc(Cl)cc2)c2ccccc2n1,BRD4 BD2,"cell-free assay, TR-FRET",,IC50,18100 nM
COCCN1CCN(c2ccc(Oc3ccc(F)cc3F)c(-c3cn(C)c(=O)c4[nH]ccc34)c2)S1(=O)=O,BRD4 BD1,"cell-free assay, TR-FRET",,IC50,0.2 nM
COc1ccccc1OC1=C(Oc2ccccc2OC)C(=O)c2ccccc2C1=O,BRD4 BD1,"BD1 acetylated peptide binding, inhibitor, HTRF",,IC50,480 nM
COCCN1CCCN(c2ccc(Oc3ccc(F)cc3F)c(-c3cn(C)c(=O)c4[nH]ccc34)c2)S1(=O)=O,BRD4 BD1,"cell-free assay, TR-FRET",,IC50,0.65 nM
COCCOCCOCCOC(=O)c1cnc2cc(-c3c(C)noc3C)c(OC)cc2c1N[C@H](C)c1ccccn1,BRD4,"binding, ITC",,Kd,1500 nM
COC(=O)N1c2ccc3cn(CCc4ccccc4)nc3c2CC[C@@H]1C,"Bromodomain-containing protein 4, BD1 and BD2 (BRD4, Homo sapiens, UniProt O60885)","binding, inhibitor",,IC50,> 25000 nM
CCNC(=O)[C@H](C)NC(=O)Cn1cc(-c2c(C)noc2C)cn1,BRD4 BD1,"binding, SPR",,Kd,51 nM
Cn1cc(-c2cc(N3CCCCS3(=O)=O)ccc2N[C@H]2CC[C@](C)(O)CC2)c2cc[nH]c2c1=O,BRD4 BD1,"cell-free assay, TR-FRET",,IC50,3.22 nM
CCNC(=O)c1ccc(CNC(=O)c2cccc(-c3c(C)noc3C)c2)cc1,BRD4 BD1,"binding, SPR",,Kd,2500 nM
Cn1cc(-c2cc(N3CCCS3(=O)=O)ccc2N[C@H]2CC[C@@](C)(O)CC2)c2cc[nH]c2c1=O,BRD4 BD1,"cell-free assay, TR-FRET",,IC50,1.24 nM
Cc1ncsc1-c1ccc([C@@H]2CCCCCCNC(=O)C[C@@H]3N=C(c4ccc(cc4)OCCCCCC(=O)N[C@@H](C(C)(C)C)C(=O)N4C[C@H](O)C[C@H]4C(=O)N2)c2c(sc(C)c2C)-n2c(C)nnc23)cc1,BRD4 BD2,"binding, BLI",,Kd,36.2 nM
Cc1sc2c(c1C)C(c1ccc(Cl)cc1)=N[C@@H](CC(=O)NCCOCCOCCOCCOCCOCCOCCOCCNC(=O)C[C@@H]1N=C(c3ccc(Cl)cc3)c3c(sc(C)c3C)-n3c(C)nnc31)c1nnc(C)n1-2,BRD4,"target engagement, NanoBRET","HEK293, live",IC50,30 nM
CNC(=O)CCN(Cc1ccc(C(F)F)cc1)C(=O)c1cc2c(OC)ccc(-c3ccc(=O)n(C)c3)c2s1,BRD4 BD2,"binding, competition with immobilised ligand",,Kd,950 nM

# A few entries again:
Compound,target,assay,test system,endpoint,result
COC(=O)CCNc1nc(-c2ccc(Cl)cc2)c2ccccc2n1,BRD4 BD2,"cell-free assay, TR-FRET",,IC50,18100 nM
COCCN1CCN(c2ccc(Oc3ccc(F)cc3F)c(-c3cn(C)c(=O)c4[nH]ccc34)c2)S1(=O)=O,BRD4 BD1,"cell-free assay, TR-FRET",,IC50,0.2 nM
